# Assay results from different studies.
# Each numbered part is a random draw from the data of one study; scales do not carry over between parts. “And” joins repeats or separate records; there may be more than shown.
# UniProt P16591, sequence (whole entry, looked up): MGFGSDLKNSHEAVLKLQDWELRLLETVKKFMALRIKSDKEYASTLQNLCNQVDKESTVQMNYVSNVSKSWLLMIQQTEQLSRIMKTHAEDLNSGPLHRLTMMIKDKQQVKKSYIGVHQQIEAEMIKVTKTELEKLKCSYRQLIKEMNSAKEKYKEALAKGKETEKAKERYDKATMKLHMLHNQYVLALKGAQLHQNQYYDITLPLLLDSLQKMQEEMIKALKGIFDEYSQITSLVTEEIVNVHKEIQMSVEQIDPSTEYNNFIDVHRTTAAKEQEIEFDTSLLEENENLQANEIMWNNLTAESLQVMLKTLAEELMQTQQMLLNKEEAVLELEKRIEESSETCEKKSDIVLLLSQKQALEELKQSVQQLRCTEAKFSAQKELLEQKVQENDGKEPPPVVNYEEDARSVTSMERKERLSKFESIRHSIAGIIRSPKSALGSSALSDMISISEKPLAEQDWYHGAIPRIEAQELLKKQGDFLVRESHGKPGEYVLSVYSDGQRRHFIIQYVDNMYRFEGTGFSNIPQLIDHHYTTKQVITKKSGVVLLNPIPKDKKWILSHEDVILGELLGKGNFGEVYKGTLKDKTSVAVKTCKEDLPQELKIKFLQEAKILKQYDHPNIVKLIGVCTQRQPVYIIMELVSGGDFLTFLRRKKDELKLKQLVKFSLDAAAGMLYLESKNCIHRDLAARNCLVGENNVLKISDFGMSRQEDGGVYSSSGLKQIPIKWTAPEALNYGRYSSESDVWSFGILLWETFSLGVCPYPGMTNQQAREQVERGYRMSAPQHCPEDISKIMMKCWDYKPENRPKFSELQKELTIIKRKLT
# UniProt Q07002, sequence (whole entry, looked up): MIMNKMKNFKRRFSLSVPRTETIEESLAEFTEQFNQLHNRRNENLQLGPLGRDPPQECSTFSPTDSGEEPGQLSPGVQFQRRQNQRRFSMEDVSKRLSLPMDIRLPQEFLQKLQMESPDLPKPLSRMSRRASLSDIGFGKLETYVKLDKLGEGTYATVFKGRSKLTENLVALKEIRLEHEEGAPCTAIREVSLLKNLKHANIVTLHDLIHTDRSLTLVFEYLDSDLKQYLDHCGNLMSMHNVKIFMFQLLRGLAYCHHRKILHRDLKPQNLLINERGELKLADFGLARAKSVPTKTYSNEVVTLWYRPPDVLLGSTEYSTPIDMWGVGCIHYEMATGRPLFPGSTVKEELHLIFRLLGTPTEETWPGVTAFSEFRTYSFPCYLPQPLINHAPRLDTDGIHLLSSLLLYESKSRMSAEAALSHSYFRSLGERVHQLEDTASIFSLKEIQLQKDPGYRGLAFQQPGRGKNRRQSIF
# UniProt P42684, sequence (whole entry, looked up): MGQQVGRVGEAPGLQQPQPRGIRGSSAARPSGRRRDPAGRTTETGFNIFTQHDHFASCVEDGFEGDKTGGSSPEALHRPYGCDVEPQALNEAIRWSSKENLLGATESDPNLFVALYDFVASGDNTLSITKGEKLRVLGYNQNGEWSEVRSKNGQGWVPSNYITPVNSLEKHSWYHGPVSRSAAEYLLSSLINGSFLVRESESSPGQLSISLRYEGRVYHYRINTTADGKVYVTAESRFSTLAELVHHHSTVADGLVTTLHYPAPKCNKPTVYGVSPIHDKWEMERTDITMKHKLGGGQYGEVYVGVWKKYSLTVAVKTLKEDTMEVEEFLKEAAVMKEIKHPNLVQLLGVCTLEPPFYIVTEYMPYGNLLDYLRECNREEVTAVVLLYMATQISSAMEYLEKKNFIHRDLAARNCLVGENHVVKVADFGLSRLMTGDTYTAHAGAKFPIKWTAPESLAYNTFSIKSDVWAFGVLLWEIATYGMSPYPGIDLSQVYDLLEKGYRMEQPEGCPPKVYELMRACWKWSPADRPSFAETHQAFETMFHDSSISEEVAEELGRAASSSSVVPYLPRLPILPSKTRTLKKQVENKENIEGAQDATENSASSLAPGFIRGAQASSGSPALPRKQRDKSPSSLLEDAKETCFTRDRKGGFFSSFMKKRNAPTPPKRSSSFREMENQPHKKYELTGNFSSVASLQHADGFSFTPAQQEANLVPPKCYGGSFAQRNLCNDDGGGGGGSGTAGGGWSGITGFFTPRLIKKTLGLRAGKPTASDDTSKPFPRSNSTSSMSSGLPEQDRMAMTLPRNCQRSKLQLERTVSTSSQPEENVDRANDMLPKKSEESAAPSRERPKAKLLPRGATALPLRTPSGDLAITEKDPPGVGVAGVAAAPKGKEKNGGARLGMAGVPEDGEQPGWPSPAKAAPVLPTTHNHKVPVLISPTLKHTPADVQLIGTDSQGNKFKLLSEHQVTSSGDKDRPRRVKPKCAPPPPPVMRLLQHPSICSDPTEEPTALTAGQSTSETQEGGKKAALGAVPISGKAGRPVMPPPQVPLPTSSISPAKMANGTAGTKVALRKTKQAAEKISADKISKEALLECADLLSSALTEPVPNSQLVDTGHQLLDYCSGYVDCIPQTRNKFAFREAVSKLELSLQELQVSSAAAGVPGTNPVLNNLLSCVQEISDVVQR
# UniProt O43293, sequence (whole entry, looked up): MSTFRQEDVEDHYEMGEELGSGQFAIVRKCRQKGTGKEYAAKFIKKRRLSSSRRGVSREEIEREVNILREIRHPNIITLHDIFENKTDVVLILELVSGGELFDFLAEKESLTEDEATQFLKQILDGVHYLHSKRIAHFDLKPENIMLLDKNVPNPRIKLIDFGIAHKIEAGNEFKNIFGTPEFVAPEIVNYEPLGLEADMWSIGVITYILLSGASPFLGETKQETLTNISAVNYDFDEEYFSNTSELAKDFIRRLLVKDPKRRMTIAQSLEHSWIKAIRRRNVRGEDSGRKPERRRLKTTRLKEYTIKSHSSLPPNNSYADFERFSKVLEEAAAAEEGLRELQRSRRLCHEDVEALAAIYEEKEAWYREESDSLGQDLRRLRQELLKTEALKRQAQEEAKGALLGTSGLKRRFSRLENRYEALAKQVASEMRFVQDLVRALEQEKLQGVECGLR
# UniProt P07333, sequence (whole entry, looked up): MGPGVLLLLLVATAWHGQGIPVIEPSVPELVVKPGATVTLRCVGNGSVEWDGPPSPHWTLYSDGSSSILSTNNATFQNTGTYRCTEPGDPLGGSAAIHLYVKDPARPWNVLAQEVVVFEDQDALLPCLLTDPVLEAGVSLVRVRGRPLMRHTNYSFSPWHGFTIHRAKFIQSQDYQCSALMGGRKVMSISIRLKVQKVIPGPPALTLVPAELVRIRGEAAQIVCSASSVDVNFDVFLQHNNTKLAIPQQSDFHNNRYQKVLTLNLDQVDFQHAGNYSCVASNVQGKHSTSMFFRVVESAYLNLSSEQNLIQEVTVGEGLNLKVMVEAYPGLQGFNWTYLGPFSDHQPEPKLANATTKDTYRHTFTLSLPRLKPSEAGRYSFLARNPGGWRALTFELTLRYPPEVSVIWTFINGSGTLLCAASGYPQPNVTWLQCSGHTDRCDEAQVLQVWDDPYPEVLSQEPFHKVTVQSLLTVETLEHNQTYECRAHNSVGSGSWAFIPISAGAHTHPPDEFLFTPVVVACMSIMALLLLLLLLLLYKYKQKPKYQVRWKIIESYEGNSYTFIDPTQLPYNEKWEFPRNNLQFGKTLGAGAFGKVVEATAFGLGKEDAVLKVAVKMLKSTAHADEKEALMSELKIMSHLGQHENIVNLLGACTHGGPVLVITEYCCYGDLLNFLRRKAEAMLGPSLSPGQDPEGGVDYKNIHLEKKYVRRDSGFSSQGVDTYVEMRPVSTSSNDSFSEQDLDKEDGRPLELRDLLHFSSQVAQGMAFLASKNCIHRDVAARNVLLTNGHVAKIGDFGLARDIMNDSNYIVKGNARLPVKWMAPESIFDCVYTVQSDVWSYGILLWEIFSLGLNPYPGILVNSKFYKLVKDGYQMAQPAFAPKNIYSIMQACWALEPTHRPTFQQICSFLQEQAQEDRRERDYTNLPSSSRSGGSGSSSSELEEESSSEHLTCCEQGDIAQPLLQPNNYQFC
# UniProt P11309, sequence (whole entry, looked up): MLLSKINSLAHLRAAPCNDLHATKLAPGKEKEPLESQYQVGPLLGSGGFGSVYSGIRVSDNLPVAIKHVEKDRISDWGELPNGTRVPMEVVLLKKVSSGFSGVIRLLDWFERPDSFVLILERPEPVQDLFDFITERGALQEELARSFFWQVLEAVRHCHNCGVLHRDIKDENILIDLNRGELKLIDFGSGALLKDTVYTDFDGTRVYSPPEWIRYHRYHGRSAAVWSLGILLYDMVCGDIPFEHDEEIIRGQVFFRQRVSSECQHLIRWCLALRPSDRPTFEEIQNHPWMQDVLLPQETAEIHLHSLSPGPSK

# Set 1 — cell line: Gaucher fibroblasts L444P/L444P; method: 4-MUG hydrolysis, cell lysate; tested at: 1 µM; reference: DMSO
SMILES,GCase activity
CCN(CC)c1nc(NCCN2CCOCC2)nc(Nc2ccc(I)cc2)n1,101% and 88% and 89.2% and 88.7%
CCOc1ccc2nc(Sc3nc(Nc4ccc(OC)cc4)nc(N4CCOCC4)n3)sc2c1,122% and 123% and 124% and 119%
CCOc1ccc2nc(Sc3nc(NCCN4CCOCC4)nc(Nc4ccc(I)cc4)n3)sc2c1,107% and 106% and 97% and 98.7% and 98.5%
Ic1ccc(Nc2nc(NCCc3c[nH]c4ccccc34)nc(NCCN3CCOCC3)n2)cc1,90.4% and 94.4% and 98.8% and 88.7%
Ic1cccc(Nc2nc(NCCN3CCOCC3)nc(N3CCOCC3)n2)c1,111% and 114% and 110% and 109% and 115%
Ic1ccc(Nc2nc(NCCN3CCOCC3)nc(NC3CCCCC3)n2)cc1,92.3% and 107% and 104% and 93.7% and 93.5%
Ic1ccc(Nc2nc(NCCN3CCOCC3)nc(N3CC4CCC(C3)O4)n2)cc1,102% and 104% and 106%
Ic1ccc(Nc2nc(NCCN3CCOCC3)nc(N3CCCC3)n2)cc1,98.4% and 90% and 97.9% and 101% and 102%

# Set 2 — tested at: 1 µM
# SMILES: CC[C@@]1(c2cccc(C(F)(F)F)c2)C2=C(Nc3n[nH]cc31)[C@H](F)C(C)(C)CC2=O (single isomer, unassigned)
target,effect on,method,reference,remaining binding [%]
"FER (Homo sapiens, UniProt P16591)",binding,competition with immobilised ligand,,100
"DSTYK (Homo sapiens, UniProt Q6XUX3)",binding,competition with immobilised ligand,,75
"Tyrosine-protein kinase ABL1, phosphorylated (ABL1, Homo sapiens, UniProt P00519, F317L)",binding,competition with immobilised ligand,,79
"KIT (Homo sapiens, UniProt P10721, D816V)",binding,competition with immobilised ligand,,100
"PIK3C2B (Homo sapiens, UniProt O00750)",binding,competition with immobilised ligand,,100
"DCLK1 (Homo sapiens, UniProt O15075)",kinase binding,KINOMEscan,DMSO control,74
"FLT3 (Homo sapiens, UniProt P36888, D835V)",kinase binding,KINOMEscan,DMSO control,100
"ABL2 (Homo sapiens, UniProt P42684)",kinase binding,KINOMEscan,DMSO control,89
"DAPK3 (Homo sapiens, UniProt O43293)",kinase binding,KINOMEscan,DMSO control,94
"CSF1R (Homo sapiens, UniProt P07333)",binding,competition with immobilised ligand,,100
"CDK18 (Homo sapiens, UniProt Q07002)",binding,competition with immobilised ligand,,100
"PIM1 (Homo sapiens, UniProt P11309)",kinase binding,KINOMEscan,DMSO control,100
"Tyrosine-protein kinase ABL1, non-phosphorylated (ABL1, Homo sapiens, UniProt P00519, T315I)",kinase binding,KINOMEscan,DMSO control,100

# Set 3 — cell line: U-87 MG; tested at: concentration not given; reference: DMSO
# SMILES: CCN1/C(=C/C=C2\CCCC(/C=C/C3=[N+](CC)c4ccccc4C3(C)C)=C2NCCCCCCCCN2CCC(Nc3nc4ccccc4n3Cc3ccc(F)cc3)CC2)C(C)(C)c2ccccc21
measured,log2 fold change
TSC22D1 mRNA,0.858
SLC16A14 mRNA,-1.88
RTL3 mRNA,-4.22
SSPN mRNA,-0.909
TRERF1 mRNA,-2.45
INSIG1 mRNA,1.77
METTL7A mRNA,-3.62
IFFO1 mRNA,-0.985
RASGEF1B mRNA,2.97
IKBKE mRNA,-1.4
COL1A2 mRNA,-2.64

# Set 4
# SMILES: Cc1ccc(O)c(C)c1-c1cnc2[nH]c(-c3cnc(N)nc3)cc2c1C#N
# PKMYT1: Membrane-associated tyrosine- and threonine-specific cdc2-inhibitory kinase (PKMYT1, Homo sapiens, UniProt Q99640)
# UniProt Q99640, sequence (whole entry, looked up): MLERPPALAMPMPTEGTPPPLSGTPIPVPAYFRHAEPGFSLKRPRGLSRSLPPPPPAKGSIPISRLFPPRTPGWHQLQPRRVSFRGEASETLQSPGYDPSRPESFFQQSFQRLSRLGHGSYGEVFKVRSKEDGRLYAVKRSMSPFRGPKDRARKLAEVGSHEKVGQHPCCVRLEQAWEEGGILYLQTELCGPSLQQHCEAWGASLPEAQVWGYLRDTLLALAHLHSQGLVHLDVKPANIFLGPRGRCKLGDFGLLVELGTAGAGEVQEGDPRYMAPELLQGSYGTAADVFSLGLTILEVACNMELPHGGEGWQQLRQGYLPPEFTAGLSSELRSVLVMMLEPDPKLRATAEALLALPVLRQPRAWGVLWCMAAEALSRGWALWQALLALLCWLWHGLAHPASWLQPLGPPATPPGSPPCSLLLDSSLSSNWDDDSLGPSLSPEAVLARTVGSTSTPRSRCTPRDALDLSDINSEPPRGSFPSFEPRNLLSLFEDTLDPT
tested on,effect on,mode,method,measured,tested at,inhibition [%]
PKMYT1,enzyme activity,inhibitor,,,1.37 nM,31.4
NCI-H1648,cell proliferation,,,,86.13 nM,-17.9
HCC1806,cell proliferation,,,,1111.11 nM,89.3
HCC1569,,,automated capillary immunoblot,CDK1 phospho-Thr14,1000 nM,82.5
PKMYT1,enzyme activity,inhibitor,,,1.372 nM,23.5
HuCCT-1,cell proliferation,,,,1111.11 nM,78.3
HCC1806,cell proliferation,,,,41.15 nM,17.4
HCC1806,cell proliferation,,,,370.37 nM,59.4
HCC1569,,,automated capillary immunoblot,CDK1 phospho-Thr14,111.11 nM,52.2
MKN-1,cell proliferation,,,,10000 nM,99.6
MKN-1,cell proliferation,,,,13.72 nM,1.3
PKMYT1,cell-free assay,,TR-FRET,,1.37 nM,23.5
NCI-H1648,cell proliferation,,,,2325.58 nM,36.2
HuCCT-1,cell proliferation,,,,41.15 nM,0.54
HCC1569,cell proliferation,,,,10000 nM,97.9
NCI-H1648,cell proliferation,,,,775.2 nM,-3.14
MKN-1,cell proliferation,,,,123.5 nM,8.79
PKMYT1,cell-free assay,,TR-FRET,,1 µM,99.1
NCI-H1648,cell proliferation,,,,28.71 nM,-16.3
HCC1569,,,automated capillary immunoblot,CDK1 phospho-Thr14,0.46 nM,-2.53
KLE,cell proliferation,,,,41.15 nM,3.99
KLE,cell proliferation,,,,1111.11 nM,44.3
HuCCT-1,cell proliferation,,,,370.37 nM,36.3

# Repeated from above (set 1):
SMILES,GCase activity
Ic1ccc(Nc2nc(NCCc3c[nH]c4ccccc34)nc(NCCN3CCOCC3)n2)cc1,90.4% and 94.4% and 98.8% and 88.7%
Ic1ccc(Nc2nc(NCCN3CCOCC3)nc(N3CC4CCC(C3)O4)n2)cc1,102% and 104% and 106%
Ic1ccc(Nc2nc(NCCN3CCOCC3)nc(NC3CCCCC3)n2)cc1,92.3% and 107% and 104% and 93.7% and 93.5%
CCOc1ccc2nc(Sc3nc(Nc4ccc(OC)cc4)nc(N4CCOCC4)n3)sc2c1,122% and 123% and 124% and 119%
Ic1cccc(Nc2nc(NCCN3CCOCC3)nc(N3CCOCC3)n2)c1,111% and 114% and 110% and 109% and 115%
Ic1ccc(Nc2nc(NCCN3CCOCC3)nc(N3CCCC3)n2)cc1,98.4% and 90% and 97.9% and 101% and 102%
CCN(CC)c1nc(NCCN2CCOCC2)nc(Nc2ccc(I)cc2)n1,101% and 88% and 89.2% and 88.7%
CCOc1ccc2nc(Sc3nc(NCCN4CCOCC4)nc(Nc4ccc(I)cc4)n3)sc2c1,107% and 106% and 97% and 98.7% and 98.5%
